Experimental data gathered from unrelated publications.
Protocols differ between the studies behind these lines. ± gives the spread as reported.
Medium: plasma

CC(C)[C@H](N)C(=O)NCCCS(=O)(=O)O
Cmax (human; oral, 265 mg tablet twice daily, day 7, fed, multiple dosing): 6460 ± 1800 ng/mL

COC(=O)N[C@H](C(=O)N1CCC[C@H]1C(=O)Nc1ccc([C@@H]2CC[C@@H](c3ccc(NC(=O)[C@@H]4CCCN4C(=O)[C@@H](NC(=O)OC)C(C)C)cc3)N2c2ccc(C(C)(C)C)cc2)cc1)C(C)C
Cmax (healthy human volunteers; oral, dose not given, alone, pravastatin interaction study): 121 ng/mL

O[C@H]1CCCN[C@@H]1CCCn1cnc2c(Cl)c(Cl)ccc21
Cmax (human; oral, 100 mg single dose, capsule, geometric mean): 124 ng/mL

Oc1ccc2cc3ccc4cccc5ccc(c2c1)c3c45
Cmax (UPLC-AMS; human; oral, 250 ng of [14C]-BaP): 6.26 ± 3.64 fg BaP equivalents/mL

C[C@@H](c1nc(-c2ccc(C#N)cc2)cs1)[C@](O)(Cn1cncn1)c1cc(F)ccc1F
Cmax (human, both sexes; oral, 200 mg QD, day 12, with: midazolam 3 mg): 5000 ng/mL

CC[C@@]1(O)C(=O)OCc2c1cc1n(c2=O)Cc2cc3c(CN(C)C)c(O)ccc3nc2-1
Cmax (human patients; oral, 8 mg weekly, day 15, geometric mean, with: pazopanib 800 mg daily): 43.6 ng/mL

Cc1cnc(C(=O)N[C@H]2CCCCC/C=C\[C@@H]3C[C@@]3(C(=O)NS(=O)(=O)C3CC3)NC(=O)[C@@H]3C[C@@H](Oc4nc5ccccc5c5ccccc45)CN3C2=O)cn1
Cmax (healthy human volunteers; oral, dose not given, with: omeprazole plus 2D regimen): 2060 ng/mL

COc1ccsc1CNCC[C@@]1(c2ccccn2)CCOC2(CCCC2)C1
Cmax (healthy human, normal hepatic function; intravenous, 1 mg single dose, geometric mean): 34.8 ng/mL

CC(=O)C[C@@H](c1ccccc1)c1c(O)c2ccccc2oc1=O
Cmax (healthy human volunteers; dose not given, given alone): 272 ng/mL

Oc1ccc2ccc3c4ccccc4cc4ccc1c2c43
Cmax (UPLC-AMS; human; oral, 100 ng of [14C]-BaP): 9.48 ± 6.63 fg BaP equivalents/mL

CC[C@H](C)[C@H](NC(=O)[C@H](CC(C)C)NC(=O)[C@H](Cc1c[nH]c2ccccc12)NC(=O)[C@H](CCC(N)=O)NC(=O)[C@@H](NC(=O)[C@H](Cc1ccccc1)NC(=O)[C@H](C)NC(=O)[C@H](CCCCNC(=O)COCCOCCNC(=O)COCCOCCNC(=O)CC[C@H](NC(=O)CCCCCCCCCCCCCCCCCCC(=O)O)C(=O)O)NC(=O)[C@H](CCC(N)=O)NC(=O)[C@H](C)NC(=O)[C@@H](NC(=O)[C@H](CCCCN)NC(=O)[C@H](CC(=O)O)NC(=O)[C@H](CC(C)C)NC(=O)C(C)(C)NC(=O)[C@@H](NC(=O)[C@H](CO)NC(=O)[C@H](Cc1ccc(O)cc1)NC(=O)[C@H](CC(=O)O)NC(=O)[C@H](CO)NC(=O)[C@@H](NC(=O)[C@H](Cc1ccccc1)NC(=O)[C@@H](NC(=O)CNC(=O)[C@H](CCC(=O)O)NC(=O)C(C)(C)NC(=O)[C@@H](N)Cc1ccc(O)cc1)[C@@H](C)O)[C@@H](C)O)[C@@H](C)CC)[C@@H](C)CC)C(C)C)C(=O)N[C@@H](C)C(=O)NCC(=O)NCC(=O)N1CCC[C@H]1C(=O)N[C@@H](CO)C(=O)N[C@@H](CO)C(=O)NCC(=O)N[C@@H](C)C(=O)N1CCC[C@H]1C(=O)N1CCC[C@H]1C(=O)N1CCC[C@H]1C(=O)N[C@@H](CO)C(N)=O
Cmax (human, normal hepatic function; subcutaneous, 5 mg single dose, geometric mean): 510 ng/mL

Cc1ncc2n1-c1ccc(Cl)cc1C(c1ccccc1F)=NC2
Cmax (human; oral, 2 mg, geometric mean, with: fenebrutinib 200 mg twice daily): 14.8 ng/mL

CCCCCOc1ccc(-c2cc(-c3ccc(C(=O)N[C@H]4C[C@@H](O)[C@@H](O)NC(=O)[C@@H]5[C@@H](O)[C@@H](C)CN5C(=O)[C@H]([C@H](O)CC(N)=O)NC(=O)[C@H]([C@H](O)[C@@H](O)c5ccc(O)c(OS(=O)(=O)O)c5)NC(=O)[C@@H]5C[C@@H](O)CN5C(=O)[C@H]([C@@H](C)O)NC4=O)cc3)no2)cc1
Cmax (human paediatric patients 6 to sample C years; intravenous, 4.5 mg/kg once daily, day 7, geometric mean): 20600 ng/mL

CCCCCOc1ccc(-c2ccc(-c3ccc(C(=O)N[C@H]4C[C@@H](O)[C@@H](OCC[N+](C)(C)C)NC(=O)[C@@H]5[C@@H](O)[C@@H](C)CN5C(=O)[C@H]([C@@H](C)O)NC(=O)[C@H]([C@H](O)[C@@H](O)c5ccc(O)cc5)NC(=O)[C@@H]5C[C@@H](O)CN5C(=O)[C@H]([C@@H](C)O)NC4=O)cc3)cc2)cc1
Cmax (healthy human adults; subcutaneous, 10 mg, single dose, geometric mean): 105 ng/mL

CCCNS(=O)(=O)Nc1ncnc(OCCOc2ncc(Br)cn2)c1-c1ccc(Br)cc1
Cmax (healthy adult humans, both sexes; oral, 10/40 mg fixed-dose combination, single dose, fasted, food-effect part): 208 ng/mL

CCCCCOc1ccc(-c2ccc(-c3ccc(C(=O)N[C@H]4C[C@@H](O)[C@@H](O)NC(=O)[C@@H]5[C@@H](O)[C@@H](C)CN5C(=O)[C@H]([C@@H](C)O)NC(=O)[C@H]([C@H](O)[C@@H](O)c5ccc(O)cc5)NC(=O)[C@@H]5C[C@@H](O)CN5C(=O)[C@H]([C@@H](C)O)NC4=O)cc3)cc2)cc1
Cmax (human neonates; intravenous, 3 mg/kg loading dose): 4000 ng/mL

Cc1ncc(OC[C@@]2(c3cccc(F)c3)C[C@H]2C(=O)Nc2ccc(F)cn2)c(C)n1
Cmax (human; 10 mg, alone, mean): 56.2 ng/mL

CC[C@H](C)[C@H](NC(=O)[C@H](CC(C)C)NC(=O)[C@H](Cc1c[nH]c2ccccc12)NC(=O)[C@H](CCC(N)=O)NC(=O)[C@@H](NC(=O)[C@H](Cc1ccccc1)NC(=O)[C@H](C)NC(=O)[C@H](CCCCNC(=O)COCCOCCNC(=O)COCCOCCNC(=O)CC[C@H](NC(=O)CCCCCCCCCCCCCCCCCCC(=O)O)C(=O)O)NC(=O)[C@H](CCC(N)=O)NC(=O)[C@H](C)NC(=O)[C@@H](NC(=O)[C@H](CCCCN)NC(=O)[C@H](CC(=O)O)NC(=O)[C@H](CC(C)C)NC(=O)C(C)(C)NC(=O)[C@@H](NC(=O)[C@H](CO)NC(=O)[C@H](Cc1ccc(O)cc1)NC(=O)[C@H](CC(=O)O)NC(=O)[C@H](CO)NC(=O)[C@@H](NC(=O)[C@H](Cc1ccccc1)NC(=O)[C@@H](NC(=O)CNC(=O)[C@H](CCC(=O)O)NC(=O)C(C)(C)NC(=O)[C@@H](N)Cc1ccc(O)cc1)[C@@H](C)O)[C@@H](C)O)[C@@H](C)CC)[C@@H](C)CC)C(C)C)C(=O)N[C@@H](C)C(=O)NCC(=O)NCC(=O)N1CCC[C@H]1C(=O)N[C@@H](CO)C(=O)N[C@@H](CO)C(=O)NCC(=O)N[C@@H](C)C(=O)N1CCC[C@H]1C(=O)N1CCC[C@H]1C(=O)N1CCC[C@H]1C(=O)N[C@@H](CO)C(N)=O
Cmax (human, severe renal impairment, no dialysis; subcutaneous, 5 mg single dose, eGFR < 30, geometric mean): 417 ng/mL

CC(C)C[C@H](CN)CC(=O)O
Cmax (human; oral, 150 mg, median): 3320 ng/mL

CC(C)c1nc(CN(C)C(=O)N[C@H](C(=O)N[C@@H](Cc2ccccc2)C[C@H](O)[C@H](Cc2ccccc2)NC(=O)OCc2cncs2)C(C)C)cs1
Cmax (healthy human volunteers; oral, dose not given, alone, escitalopram interaction study): 1170 ng/mL

NS(=O)(=O)Nc1ncnc(OCCOc2ncc(Br)cn2)c1-c1ccc(Br)cc1
Cmax (healthy adult humans, both sexes; oral, 10/40 mg fixed-dose combination, single dose, fed, high-fat breakfast): 176 ng/mL

COc1ccc(C[C@@H]2NC(=O)[C@H]([C@@H](C)O)NC(=O)[C@@H]3[C@@H]4CCN3C(=O)[C@@H]3Cc5cn(c6ccc(F)cc56)CCCCCCN(Cc5ccc(cc5)CCNC(=O)[C@]5(C)CCCN5C2=O)C(=O)CCC(=O)N[C@@H](C)C(=O)N[C@H](CNC(=O)CCCCC[N+](C)(C)C)C(=O)N[C@@H](Cc2cccc(c2)CNC(=O)CO4)C(=O)N3)cc1
Cmax (fasted healthy humans; oral, 100 mg single dose, with 1800 mg Labrasol, geometric mean): 46.2 nM
